Results from different studies.
Lines come from different studies, so protocols differ. “And” joins repeats or separate records; there may be more than shown.
Target: Dual specificity tyrosine-phosphorylation-regulated kinase 2 (DYRK2, Homo sapiens, UniProt Q92630)

| SMILES | test | conditions | how to read | measurement | value |
| --- | --- | --- | --- | --- | --- |
| C=CC(=O)Nc1cccc(-c2cnc3[nH]cc(C(=O)NC(C)(C)C)c3n2)c1 | kinase activity | 0.1 µM | – | inhibition | 5% and 11% |
| COc1ccc(NC(=O)Nc2ccc3c(c2)C(=O)N(C(C)CO)CC(C)C(CN(C)Cc2ccc4c(c2)OCO4)O3)cc1 (centres unmarked) | kinase activity, KinaseProfiler | 0.03 µM, species human | reference: control | remaining activity | 99% |
| Cc1ccc(-c2c(/C=C(\C#N)C(=O)NC(C)C)n(CCCO)c3ncnc(N)c23)cc1 | cell-free assay, competition with immobilised ligand | 1 µM | – | remaining binding | 86% |
| CNC(=O)C[C@H](Cc1ccc(C#N)cc1)NC(=O)c1cc(-c2ccc(CN[C@H](C)c3ccc(C)cc3)o2)ccc1Cl | enzyme activity, inhibitor | 1 µM | – | activity vs control | 103% |
| Cc1ccc(C)c(-c2ccc3nc(NC(=O)C4CCCCC4)nn3c2)c1 | enzyme activity, Dundee kinase panel | 10 µM | – | remaining activity | 11% |
| Cc1cnc2nc1Nc1cccc(c1)COC/C=C/COCc1cc(ccc1OCCN1CCOCC1)N2 | binding | 0.1 µM | – | remaining binding | 84% |
| COc1c(Cl)cccc1Nc1c(-c2ccncc2C#C[C@@]2(C)CCCN2C(=O)/C=C/CN(C)C)[nH]c2c1C(=O)NCC2 | binding, competition with immobilised ligand | 3 µM | – | remaining binding | 75% |
| Nc1ncc2c(n1)-c1c([nH]c3ccc(C4=CCOCC4)cc13)CCC2 | binding, competition with immobilised ligand | 1 µM | – | remaining binding | 63% |
| Cc1cccc(-c2ccc3nc(NC(=O)C4CCCCC4)nn3c2)c1 | enzyme activity, Dundee kinase panel | 10 µM | – | remaining activity | 24% |
| CC(C)=CC1OC(C)(C)C2C=C3C(=O)C(Cl)=CC(O)C3C3C(O)C4OC4C(=O)C132 (centres unmarked) | cell-free assay, competition with immobilised ligand | 10 µM | – | remaining binding | 68% |
| Nc1nc(Nc2ccccc2)sc1C(=O)c1ccccc1 | enzyme activity, inhibitor | 10 µM | – | remaining activity | 25% |
| CNC1C[S+]2CC[S+]3CC[S+](C1)[Ru-4]321([N]=C=S)[n]2c3ccc(OC)cc3c3c4c(c5cc(F)c[n+]1c5c32)C(=O)NC4=O (centres unmarked) | KinomeScan | 0.1 µM | reference: untreated | remaining binding | 100% |
| C=CC(=O)N1Cc2nc(-c3cc(-c4cc(Cl)cnc4Cl)c(F)cc3F)n(-c3ccncn3)c2C1 | cell-free assay, inhibitor | 1 µM | – | inhibition | -2.7% |
| COc1cc(Nc2nccc(-c3cnn4nc(OC)ccc34)n2)cc(C(F)(F)F)c1 | binding, competition with immobilised ligand | 1 µM | – | remaining binding | 71% |
| Cc1cccc(O[C@H]2CCC[C@@H](C(C)CNCc3ccncc3)C2)c1 (relative stereo) | enzyme activity, inhibitor | 1 µM | – | inhibition | -2% |
| CCN1CCN(Cc2ccc(C(=O)Nc3ccc(C)c(NCc4cnc5[nH]ccc5c4OC)c3)cc2C(F)(F)F)CC1 | binding, competition with immobilised ligand | 1 µM | – | remaining binding | 82% |
| NC(=O)C[C@H]1CCc2sc3ncnc(O[C@H]4CC[C@H](N5CCOCC5)CC4)c3c21 | enzyme activity, inhibitor | 10 µM | – | inhibition | 3% |

For quick reference, copied from above:
| SMILES | test | conditions | how to read | measurement | value |
| --- | --- | --- | --- | --- | --- |
| COc1c(Cl)cccc1Nc1c(-c2ccncc2C#C[C@@]2(C)CCCN2C(=O)/C=C/CN(C)C)[nH]c2c1C(=O)NCC2 | binding, competition with immobilised ligand | 3 µM | – | remaining binding | 75% |
| Nc1ncc2c(n1)-c1c([nH]c3ccc(C4=CCOCC4)cc13)CCC2 | binding, competition with immobilised ligand | 1 µM | – | remaining binding | 63% |
| Cc1cccc(-c2ccc3nc(NC(=O)C4CCCCC4)nn3c2)c1 | enzyme activity, Dundee kinase panel | 10 µM | – | remaining activity | 24% |
